Published values of several laboratories.
A part holds a random share of what one study measured. Positions count from the first letter of the parent shown.

Series 1
Target: Myc proto-oncogene protein, bHLH-zipper, MAX partner unstated (MYC, Homo sapiens, UniProt P01106, residues 368-449)
Chain of UniProt P01106 (368-449, looked up): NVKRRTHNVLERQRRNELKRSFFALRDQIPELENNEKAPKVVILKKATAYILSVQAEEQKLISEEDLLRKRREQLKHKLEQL
Technique: protein-binding microarray
Form: double-stranded DNA, one strand shown
Matrix: in vitro
Concentration: not given
Setting: k-mer, scored over probes, only values ≥0.25
Reading: higher = stronger binding
Endpoint: E-score
ACATGGAG: 0.329
ATCCACGC: 0.388
ACACGAGG: 0.472
CCGTGTCA: 0.298
ACATCGTG: 0.408
CTACATGC: 0.283
ACGTCCAC: 0.253
GCGCACGA: 0.37
AAGTCACG: 0.273
CACATGAG: 0.389
GCGTGTTA: 0.414
CGTGGTAC: 0.389
CACGCATA: 0.31
CACACGCC: 0.357

Series 2
Target: RNA binding protein fox-1 homolog 2, RRM domain, GST-SBP tag (RBFOX2, Homo sapiens, UniProt O43251-10, residues 100-194)
Technique: RNA Bind-n-Seq
Form: RNA
Matrix: in vitro
Concentration: 365 nM
Setting: natural RNA segment, single round, ends assumed
Relative to: no-protein control
Reading: higher = stronger binding
Endpoint: RBNS enrichment (R)
Residues (chain): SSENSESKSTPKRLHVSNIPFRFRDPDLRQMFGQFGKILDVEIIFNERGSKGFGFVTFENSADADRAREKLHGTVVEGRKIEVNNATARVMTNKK
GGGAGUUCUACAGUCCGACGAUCUUUUUAAACACUUUUUGAAAUAGAGUGUGCUGUGUUUAAAACCAAAAAUAUGCAUGUUGUCUCUGAAAAGUAGGCAUUGAAACAGACUUUUUUGUAGUCAGUGUUAAUAAUGGAAUUCUCGGGUGCCAA: 10.3
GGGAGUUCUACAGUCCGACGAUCUCAGCCAGUGAGAUGGCCAGCCCCCUCCUGCUGCCACACCACGUAAGUUCUCAGUCCCAACCUCGGGGAUGUGUGCAGACAGGGCUGUGUGACCACAGCUGGGCCCUGUUUGGAAUUCUCGGGUGCCAA: 0.355
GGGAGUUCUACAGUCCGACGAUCUGAAAAUCUUUUUUAAGGGAGAAAAAUCUCAACCAAAGUUAUGCUCAUCCAGACAAGCUGACCUUUGAGUUAAUUUCAGCACAACUCAUUCUUCAGUGCCUCAUGACUGAUGGAAUUCUCGGGUGCCAA: 0.478
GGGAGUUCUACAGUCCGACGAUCUUUGGUUUCCAAGCCAAGGGAAAAGCUGAAGACAUGAGUAAUGAUCUUGCUUCAUGAGAUUGUACCUCUUAAGUGGCUGCGGACCUGGCUAAACUGUGGGUGGCAGUGGGUGGAAUUCUCGGGUGCCAA: 0.395
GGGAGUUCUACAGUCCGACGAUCUUGAAAGCAGUUGGAAACCAGCUAAUAGUUUCUUAAUCUCAGAUUUCGAGAUGAAUGUAAACUGUAUUCUUUUGAAAUGUGCAAGUGUUUGAUUCAUGCCAUUUGAUAAAUGGAAUUCUCGGGUGCCAA: 0.642
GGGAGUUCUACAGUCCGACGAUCCAAAUGAUUUUCUAACUUAGUGUUAGGAGAAAUUAUUUUCCAUCUUUAACCUCUUAGUUGUCUAAGAGUUAAAUAUUACUGAAUUUCAGACGUUCAAAUUGAUCAUCACAUGGAAUUCUCGGGUGCCAA: 0.281
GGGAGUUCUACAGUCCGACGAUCGCAAAGGUGUAGAACACAUUUUUUCAAAGACUAAAUCUAAAACCCAGAGUAAACAUCCGAUGCUCAGAGUUAGCAUAAUUUGGAGCUAUUCAGGAAUUGCAGAGAAAUGCUGGAAUUCUCGGGUGCCAA: 0.603
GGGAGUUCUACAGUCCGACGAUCGCCCCACCCUUACCGGACACUGGGAAGAACUGUUGGCCCCUAGAAACCAAAGGCCAAACUGAGGCUGCCCUGAGUUGGAAGACCACUUUCUGAAAUGCCCAUGGACUCUGUGGAAUUCUCGGGUGCCAA: 0.396
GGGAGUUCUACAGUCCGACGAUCUCCUCUGCUUGCUGGAACAUUCUAACAUUUACACUUUUGUUAUAAGCUAUUUAAAACCAGUAAGGAGACUUGAAAUUCAGAAAAUCAACACAUUUUUAAAUGACUAACUUUGGAAUUCUCGGGUGCCAA: 0.407

Series 3
Target: CCNE2, cyclin fold, Cln2 fusion (human)
Technique: yeast growth competition, sequencing
Matrix: yeast
Setting: strong parent motif
Relative to: not given
Reading: higher = stronger binding
Endpoint: normalised enrichment score
Starting sequence: SCAPER docking peptide (human); SNARRSLNFGGST; partner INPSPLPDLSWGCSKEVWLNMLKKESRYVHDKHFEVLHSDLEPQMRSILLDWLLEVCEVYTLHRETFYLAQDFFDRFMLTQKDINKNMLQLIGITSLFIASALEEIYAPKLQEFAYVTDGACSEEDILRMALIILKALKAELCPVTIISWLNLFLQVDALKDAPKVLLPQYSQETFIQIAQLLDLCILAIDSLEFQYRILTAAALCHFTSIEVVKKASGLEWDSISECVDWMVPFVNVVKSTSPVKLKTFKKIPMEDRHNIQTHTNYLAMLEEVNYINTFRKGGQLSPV
R4D: 0.29
N2G: 2
R5F: 0.175
R4N: 0.659
T13D: 2.1
G10K: -0.251
F9I: 0.409
S12M: -0.184
T13Q: 1.05
S1L: 1.35
R4W: 0.373
G10R: 0.64

Mixed results
PhoQ, residues 284 288 289 292 302 303 TASMAF
fold induction (PhoP, residues 12 14 15 18 19 LYFRQ (Escherichia coli, UniProt P23836); Sort-seq, refers to: YFP reporter; E. coli; PhoQ-PhoP variant library, together with: 10 µM Mg2+; relative to: high Mg2+ state, higher = stronger signaling): 14.5

Excerpt of the above (series 1):
GCGTGTTA: 0.414
CGTGGTAC: 0.389
AAGTCACG: 0.273
CACGCATA: 0.31
CTACATGC: 0.283
